# Measurements from different studies.
# Every numbered part comes from another study and shows a few of its results, in no order.

# Block 1 — technique: protein-binding microarray; form: double-stranded DNA, one strand shown; matrix: in vitro; concentration: 250 nM; setting: 60-bp whole probe; together with: salmon DNA 0.4 mg/ml; baseline: random background probes; direction: higher = stronger binding
# Target: Interferon regulatory factor 7, full length, phosphomimetic (IRF7, Homo sapiens, UniProt Q92985, residues 1-503, S101K/S471D/S472D/S475D/S476D/S477D/S483D/S484D/S487D)
# Chain of UniProt Q92985 (whole entry, unmodified, looked up): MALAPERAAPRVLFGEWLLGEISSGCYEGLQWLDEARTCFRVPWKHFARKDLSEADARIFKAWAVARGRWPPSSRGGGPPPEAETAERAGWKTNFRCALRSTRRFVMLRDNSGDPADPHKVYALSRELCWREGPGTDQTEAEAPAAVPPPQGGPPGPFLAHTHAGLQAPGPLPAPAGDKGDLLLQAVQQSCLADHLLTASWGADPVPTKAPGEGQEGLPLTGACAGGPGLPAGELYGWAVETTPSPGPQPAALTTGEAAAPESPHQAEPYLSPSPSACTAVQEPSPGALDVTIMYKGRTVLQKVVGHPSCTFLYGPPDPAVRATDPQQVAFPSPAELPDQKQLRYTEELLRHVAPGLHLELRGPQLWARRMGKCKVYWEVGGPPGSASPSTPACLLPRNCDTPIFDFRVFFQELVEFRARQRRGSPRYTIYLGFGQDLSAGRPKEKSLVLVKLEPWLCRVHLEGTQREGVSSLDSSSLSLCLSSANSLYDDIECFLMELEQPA
Sequence,log fluorescence
GCCTAGCACTTAGATATCAGTATCGCTTAGTGCTAGGTCTTGATTCGCTTGACGCTGCTG,0.26 z-score
GCCTAGCACTTAGAACTGTGTTTCGATTAGTGCTAGGTCTTGATTCGCTTGACGCTGCTG,3.51 z-score
GCCTAGCACTCCCCTCCGGGACCCGCCTCGTGCTAGGTCTTGATTCGCTTGACGCTGCTG,0.0213 z-score
GCCTAGCACTTAGGACTGCTTATGCTTTAGTGCTAGGTCTTGATTCGCTTGACGCTGCTG,-0.301 z-score

# Block 2 — target: Sox, HMG box (Pigoraptor chileana); technique: Spec-seq; form: double-stranded DNA, one strand shown; matrix: in vitro; concentration: not given; setting: whole probe, mean of replicates; baseline: not given; direction: lower = stronger binding; shared flanks, not repeated: GAGTCGTCTCGTCAGCAC … CCGTAGAGCACTCAGGTC
# Target sequence (chain): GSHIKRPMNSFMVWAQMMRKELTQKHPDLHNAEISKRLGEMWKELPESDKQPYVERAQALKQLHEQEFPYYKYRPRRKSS
Sequence,relative binding energy
GTGCGTT,1.58 ln ratio
CCCAGTT,0.165 ln ratio
CACGGTT,0.626 ln ratio
CATAAAC,-0.42 ln ratio
TAACGTT,0.892 ln ratio
CATCCCC,1.03 ln ratio
GGCCGTT,1.09 ln ratio
CATGACG,0.359 ln ratio

# Block 3 — technique: protein binding microarray; form: double-stranded DNA, one strand shown; matrix: in vitro; concentration: not given; baseline: not given; direction: higher = stronger binding
# Target: Histone acetyltransferase KAT6A, winged helix 1, GST fusion (KAT6A, Homo sapiens, UniProt Q92794, residues 1-85)
# Setting: 8-mer, flanks averaged, mean of 2 arrays, mostly near background
# Residues (chain): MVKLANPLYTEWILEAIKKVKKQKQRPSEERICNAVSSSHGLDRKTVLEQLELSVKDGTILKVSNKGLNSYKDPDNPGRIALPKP
Sequence,E-score
AACTCCGT,0.223
TCAATTCA,-0.262
GAGTTGTA,-0.0916
AGGACTAA,-0.0471
TCAGATAA,-0.208
GAATGCTA,-0.0968
CGGACATC,0.161

# Single results of other studies
Molecule,target,test,system,conditions,how to read,measurement,value
"PhoQ, residues 284 288 289 292 302 303 GLASVI","PhoP, residues 12 14 15 18 19 TQAML (Escherichia coli, UniProt P23836)","Sort-seq, refers to: YFP reporter",E. coli,"PhoQ-PhoP variant library, together with: 10 µM Mg2+","baseline: high Mg2+ state, higher = stronger signaling",fold induction,1.82

# Repeated from above (block 3):
Sequence,E-score
GAATGCTA,-0.0968
CGGACATC,0.161
GAGTTGTA,-0.0916
